Results collected from several papers.
Each numbered part is a random draw from the data of one study; scales do not carry over between parts. Changes are numbered by the printed parent chain.

Study 1
Target: Phosphate system positive regulatory protein PHO4, full length, GST-tagged (PHO4, Saccharomyces cerevisiae, UniProt P07270, residues 1-312)
Technique: competition protein-binding microarray
Molecule type: double-stranded DNA, one strand shown
Sample: in vitro
Tested at: 2 µM
Setting: whole 60-bp probe, lowest competitor level
Added: Cbf1 competitor, 0.05 µM
Direction: higher = stronger binding
Construct (chain): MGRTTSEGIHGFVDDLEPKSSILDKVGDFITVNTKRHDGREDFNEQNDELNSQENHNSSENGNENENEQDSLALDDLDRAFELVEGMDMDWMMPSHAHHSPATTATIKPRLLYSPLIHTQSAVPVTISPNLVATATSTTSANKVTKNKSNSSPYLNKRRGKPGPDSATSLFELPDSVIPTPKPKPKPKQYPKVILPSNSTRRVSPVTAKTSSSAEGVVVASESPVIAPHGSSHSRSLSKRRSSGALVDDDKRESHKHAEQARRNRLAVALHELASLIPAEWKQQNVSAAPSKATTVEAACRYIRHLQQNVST
`AAATTACTAAGTTGTCACGAAACTTACCCCGTATGAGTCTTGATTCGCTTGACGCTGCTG` gave a fluorescence intensity of 3330 a.u.
With `TATGTGTCCAAGAGACACATGAGCCCAAAAAGGGTAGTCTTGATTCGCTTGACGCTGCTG` the fluorescence intensity was 5090 a.u.
`GTAACCGGTCAAAGCCATGTGAGCCATGAATAAAGAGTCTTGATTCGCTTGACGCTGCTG` gave a fluorescence intensity of 6790 a.u.
`ATTACGAGTTTTTCATCCGTGATGGCGATGATTTGGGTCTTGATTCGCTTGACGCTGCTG` has a fluorescence intensity of 3810 a.u.
With `CCTGGAGAACCGGGAGGCGTGGGTAAGTTGCTTGAAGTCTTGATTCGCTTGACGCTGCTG` the fluorescence intensity was 7900 a.u.
`AAATTACTAAGTTGCTATGTGGGTGACGCCGTATGAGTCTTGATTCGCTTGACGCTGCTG` gave a fluorescence intensity of 4630 a.u.
With `ATTTGAGAATATACTGTCGTGACGAAGTCAATGACAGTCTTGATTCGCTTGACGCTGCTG` the fluorescence intensity was 4400 a.u.
The fluorescence intensity of `TACCCCATAATTTTGCACGTGACGGGTTTGTATTACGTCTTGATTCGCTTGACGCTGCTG` is reported as 16100 a.u.
The fluorescence intensity of `CATACCCAACCTTGTGTTGTGGGTGAAGATATTTGTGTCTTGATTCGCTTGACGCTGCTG` is reported as 6050 a.u.
The fluorescence intensity of `AAAGACAGGACTTCGAACGTGTAGGACTTAGACCAGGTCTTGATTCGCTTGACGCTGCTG` is reported as 8170 a.u.
The fluorescence intensity of `CTAACGAAGGTTTGCTGCGTGGGTGACAAGCCAAGTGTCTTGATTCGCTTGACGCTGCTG` is reported as 8340 a.u.
The fluorescence intensity of `GTCAGAGTCGTTGTTCTCGTGCTTTTCCGTAGCCTCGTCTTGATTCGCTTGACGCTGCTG` is reported as 8370 a.u.
`CTTTCCCGATCTTGTCACGATACTTTAGCACATTTGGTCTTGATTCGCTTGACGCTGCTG` has a fluorescence intensity of 6730 a.u.
`AAATTACTAAGTTGCTACGTGGGTGACGCCGTATGAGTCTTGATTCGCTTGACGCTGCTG` has a fluorescence intensity of 7280 a.u.
The fluorescence intensity of `CGGGGTTAAGTTTGCACCGTGGGTGGCTTGCAGCAGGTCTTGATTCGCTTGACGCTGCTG` is reported as 7600 a.u.
The fluorescence intensity of `TTCTGCCCTTAATCGCACGTGCCAGAAGACCTGTACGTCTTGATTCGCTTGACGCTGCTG` is reported as 17400 a.u.
For `TGGGTACAAAGCAGTGTCGTGCTTTTCCAAGGCATCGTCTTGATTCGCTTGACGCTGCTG`, the fluorescence intensity was 6350 a.u.

Study 2
Target: Histone acetyltransferase KAT6A, both winged helices, GST fusion (KAT6A, Homo sapiens, UniProt Q92794, residues 1-181)
Technique: protein binding microarray
Molecule type: double-stranded DNA, one strand shown
Sample: in vitro
Tested at: not given
Setting: 8-mer, flanks averaged, mean of 2 arrays, mostly near background
Reference: not given
Direction: higher = stronger binding
Residues (chain): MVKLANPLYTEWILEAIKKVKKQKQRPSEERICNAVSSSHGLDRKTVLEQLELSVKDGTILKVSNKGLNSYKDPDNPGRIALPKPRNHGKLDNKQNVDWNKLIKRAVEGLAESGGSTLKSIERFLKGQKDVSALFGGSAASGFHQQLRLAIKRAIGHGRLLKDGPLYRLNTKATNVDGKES
The E-score of `ATTTTTCA` is reported as -0.0618.
The E-score of `GCTTCTCA` is reported as -0.0921.
`GGATAGGA` gave an E-score of -0.116.
`AAATTTGC` has an E-score of 0.0744.
For `CTGGCTGC`, the E-score was -0.0649.
`GGGGCTGA` gave an E-score of 0.0155.
`TACAGAGA` gave an E-score of -0.0635.
`CTCGGAGA` has an E-score of 0.0466.
`ACCCCGCT` has an E-score of 0.159.
`ACGGTAAG` has an E-score of 0.166.
With `AGTCTCAA` the E-score was -0.0989.
With `AAACACGC` the E-score was 0.232.
With `AGGGTATC` the E-score was -0.176.
With `ACTGACCA` the E-score was -0.103.
`AGCTGACT` gave an E-score of -0.109.
`GCAAAAGA` gave an E-score of 0.0155.
For `CGGTTATA`, the E-score was 0.0895.
The E-score of `TCTCCGCA` is reported as 0.138.
With `GTTACAAA` the E-score was -0.0474.
With `AAAACCCA` the E-score was -0.0999.
For `AAAGACCA`, the E-score was -0.203.
`GCGAGCGC` gave an E-score of 0.295.
`ACAGTGGC` gave an E-score of -0.0337.
The E-score of `CCGCATTC` is reported as 0.224.
`ATTTGATG` has an E-score of -0.16.

Study 3
Target: CCNB1, cyclin fold, Cln2 fusion (human)
Technique: yeast growth competition, sequencing
Sample: yeast
Setting: weak parent motif
Reference: not given
Direction: higher = stronger binding
Starting sequence: RRM2 docking peptide (human); SKTARRIFQEPTE
For `E13A`, “normalised enrichment score” read 0.0911.
Under “normalised enrichment score”, `R5A` is recorded as 0.342.
`Q9A` — result for “normalised enrichment score”: 0.465.
Under “normalised enrichment score”, `E10A` is recorded as 0.0827.
For `K2A`, “normalised enrichment score” read 0.303.
`T3A`: “normalised enrichment score” -0.251.

Study 4
Target: Fragile X messenger ribonucleoprotein 1, C-terminal low-complexity region (Fmr1, Mus musculus, UniProt P35922)
Technique: RNA Bind-n-Seq
Molecule type: RNA
Sample: in vitro
Tested at: 200 nM
Setting: whole 134-nt RNA, ends assumed
Added: 150 mM KCl
Reference: input library
Direction: higher = stronger binding
With `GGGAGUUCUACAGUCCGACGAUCAAGUCCUGUGCUACACAUCGUAUGUACCGAAUCGGGUUUUGGGGUUUUGGGUUUUGGAAAGUAUUAUGUUACGCCGUUCGGAUCUGCACUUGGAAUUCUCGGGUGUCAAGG` the log2 enrichment was -0.101.
The log2 enrichment of `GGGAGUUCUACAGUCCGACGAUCUGGGAGGGGGAUUUUGUUUAUUUUUUUAGCUCAUUUCCAGGGGUGGGAAUUUUUUUUUAAUAUGUGUCAUGAAUAAAGUUGUUUUUGAAAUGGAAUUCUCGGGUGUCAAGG` is reported as 0.329.
`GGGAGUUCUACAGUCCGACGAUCUGGCCCUGGUGGCAUGCGGGGAGGAAGAGGUGGCCUCAUGGAUCGUGGUGGUCCCGGUGGAAUGUACAGAGGUGGCCGUGGUGGAGACAGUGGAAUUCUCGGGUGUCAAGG` gave a log2 enrichment of 0.0636.
With `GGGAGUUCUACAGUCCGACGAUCAGUCCUGUGCUACACAUCGUAUGUACCGAAUCGGGUUUUUUUGGGAAAAAGGGAGGGAAAGUAUUAUGUUACGCCGUUCGGAUCUGCACUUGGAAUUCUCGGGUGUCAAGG` the log2 enrichment was 0.479.
The log2 enrichment of `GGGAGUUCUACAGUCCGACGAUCUCCUGUGCUACACAUCGUAUGUACCGAAUCGGGGAAAAAGGGAAAAAGGGAAAAAGGGGAAAGUAUUAUGUUACGCCGUUCGGAUCUGCAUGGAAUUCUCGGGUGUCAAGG` is reported as 0.00284.
`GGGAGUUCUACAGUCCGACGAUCUCAAGUCCUGUGCUACACAUCGUAUGUACCGAAUCGGGCCGGGGCCGGGGCCGGAAAGUAUUAUGUUACGCCGUUCGGAUCUGCACUUCCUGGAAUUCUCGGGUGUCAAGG` has a log2 enrichment of -0.457.
`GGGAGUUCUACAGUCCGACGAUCUUUAGACAGAAACAAGAAGCAACAGAGUCCCUUAAGUGCCAAGAGGAACUUCGAGAGCGCCUUCAUGAGGAGUCCAGGGCCAGAGAACAGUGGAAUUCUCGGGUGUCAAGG` has a log2 enrichment of -0.831.
The log2 enrichment of `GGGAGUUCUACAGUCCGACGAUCCCUGUGCUACACAUCGUAUGUACCGAAUCGGUUUUUUUGGUUUUUUUGGGUUUUUUUGGGGAAAGUAUUAUGUUACGCCGUUCGGAUCUGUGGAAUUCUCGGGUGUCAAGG` is reported as -1.06.
With `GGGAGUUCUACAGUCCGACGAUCGCAGGAAGUAAAAACAAAUGGAAAUGCUUCGGAUAGUGGCAGGUGUGGGGGUUGCUAAGGAAAGGGUGGGAUGGGAGUGGGUAAAGAGUUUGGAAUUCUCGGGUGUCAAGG` the log2 enrichment was 0.322.
For `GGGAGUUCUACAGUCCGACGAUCUGGGCGGUGGAUUUUGUUUAUUUUUUUAGCUCAUUUCCAGGGGUGGGAAUUUUUUUUUAAUAUGUGUCAUGAAUAAAGUUGUUUUUGAAAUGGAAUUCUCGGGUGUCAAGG`, the log2 enrichment was 0.333.

Study 5
Target: Sal-like protein 4, full length isoform B (SALL4, Homo sapiens, UniProt Q9UJQ4-2, residues 1-616)
Technique: universal PBM
Molecule type: double-stranded DNA, one strand shown
Sample: in vitro
Tested at: not given
Setting: 8-mer, flanks averaged, mean of replicates
Direction: higher = stronger binding
Construct (chain): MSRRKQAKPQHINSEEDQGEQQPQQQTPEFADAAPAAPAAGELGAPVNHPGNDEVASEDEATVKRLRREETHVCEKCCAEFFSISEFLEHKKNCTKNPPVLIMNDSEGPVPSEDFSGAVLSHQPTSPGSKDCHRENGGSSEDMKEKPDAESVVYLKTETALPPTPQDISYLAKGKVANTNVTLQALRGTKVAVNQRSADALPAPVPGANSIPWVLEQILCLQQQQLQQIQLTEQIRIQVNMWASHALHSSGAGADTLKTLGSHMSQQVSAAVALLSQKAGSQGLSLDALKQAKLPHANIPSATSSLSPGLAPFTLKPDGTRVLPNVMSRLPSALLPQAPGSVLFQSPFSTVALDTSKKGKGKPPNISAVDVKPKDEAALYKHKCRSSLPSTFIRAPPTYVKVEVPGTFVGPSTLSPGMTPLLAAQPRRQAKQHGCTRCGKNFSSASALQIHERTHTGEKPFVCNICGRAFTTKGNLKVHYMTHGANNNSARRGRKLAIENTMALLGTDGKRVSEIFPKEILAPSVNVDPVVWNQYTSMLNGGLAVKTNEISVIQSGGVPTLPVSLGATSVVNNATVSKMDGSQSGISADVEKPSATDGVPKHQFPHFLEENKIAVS
For `CCAAAACG`, the E-score was -0.0564.
`ATTATCTG` has an E-score of 0.221.
The E-score of `TACAAGAA` is reported as 0.175.
`AGGGCGCC` gave an E-score of -0.28.
With `ACCTTCAG` the E-score was -0.00279.
With `GTGAGCTA` the E-score was 0.034.
`GGGTCCGA` has an E-score of -0.281.
For `CTCGCGGA`, the E-score was -0.228.
The E-score of `CCCAACAG` is reported as -0.196.
`ACTTCCCT` gave an E-score of -0.13.
`CTTTGCAC` has an E-score of 0.0129.
The E-score of `GCCTCAAA` is reported as -0.189.
With `CATTATGA` the E-score was 0.363.
`CCAAAAAC` gave an E-score of 0.102.
`AAGCGCAT` gave an E-score of -0.0183.
`ATCACTCG` gave an E-score of 0.0561.
The E-score of `CAGGTAGG` is reported as 0.0122.
The E-score of `GGACTGGA` is reported as -0.129.
`CAATAGGG` has an E-score of -0.0439.
For `ACCGATGC`, the E-score was -0.124.
`GAACGATA` has an E-score of 0.154.
`AGGCAAAT` has an E-score of 0.0697.
The E-score of `CTAAGGTC` is reported as -0.0711.
For `AGATCTAG`, the E-score was -0.0352.
`CATCAATC` has an E-score of 0.173.

Other studies, line by line
The fold induction of `PhoQ, residues 284 288 289 292 302 303 NLCILV` is reported as 20.9 (PhoP, residues 12 14 15 18 19 LQHIR (Escherichia coli, UniProt P23836); Sort-seq, refers to: YFP reporter; E. coli; PhoQ-PhoP variant library, added: 10 µM Mg2+; reference: high Mg2+ state, higher = stronger signaling).

For quick reference, copied from above (study 2):
`GGGGCTGA` gave an E-score of 0.0155.
`ATTTGATG` has an E-score of -0.16.
With `AGGGTATC` the E-score was -0.176.
`ACCCCGCT` has an E-score of 0.159.
`GCGAGCGC` gave an E-score of 0.295.
With `ACTGACCA` the E-score was -0.103.
`AGCTGACT` gave an E-score of -0.109.
`GCAAAAGA` gave an E-score of 0.0155.
The E-score of `GCTTCTCA` is reported as -0.0921.
For `CTGGCTGC`, the E-score was -0.0649.
The E-score of `CCGCATTC` is reported as 0.224.
For `AAAGACCA`, the E-score was -0.203.
